Measured values gathered from unrelated publications.
A part holds a random share of what one study measured.

Study 1
Target: Histone acetyltransferase KAT6A, winged helix 2, GST fusion (KAT6A, Homo sapiens, UniProt Q92794, residues 85-181)
Technique: protein binding microarray
Molecule type: double-stranded DNA, one strand shown
Sample: in vitro
Concentration: not given
Setting: 8-mer, flanks averaged, mean of 2 arrays, mostly near background
Baseline: not given
Direction: higher = stronger binding
Target sequence (chain): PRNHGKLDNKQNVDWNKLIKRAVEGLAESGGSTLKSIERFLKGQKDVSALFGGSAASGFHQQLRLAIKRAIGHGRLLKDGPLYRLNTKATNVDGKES
Oligonucleotide	E-score
AAAGCATG	0.0756
GAAACTCC	0.0629
AGATCACT	0.16
ATTTGAGC	-0.012
AAACCTCA	0.038
CTATTGAA	-0.0956

Study 2
Target: Ras GTPase-activating protein-binding protein 1, RRM domain (G3BP1, Homo sapiens, UniProt Q13283)
Sequence of UniProt Q13283 (whole entry, looked up): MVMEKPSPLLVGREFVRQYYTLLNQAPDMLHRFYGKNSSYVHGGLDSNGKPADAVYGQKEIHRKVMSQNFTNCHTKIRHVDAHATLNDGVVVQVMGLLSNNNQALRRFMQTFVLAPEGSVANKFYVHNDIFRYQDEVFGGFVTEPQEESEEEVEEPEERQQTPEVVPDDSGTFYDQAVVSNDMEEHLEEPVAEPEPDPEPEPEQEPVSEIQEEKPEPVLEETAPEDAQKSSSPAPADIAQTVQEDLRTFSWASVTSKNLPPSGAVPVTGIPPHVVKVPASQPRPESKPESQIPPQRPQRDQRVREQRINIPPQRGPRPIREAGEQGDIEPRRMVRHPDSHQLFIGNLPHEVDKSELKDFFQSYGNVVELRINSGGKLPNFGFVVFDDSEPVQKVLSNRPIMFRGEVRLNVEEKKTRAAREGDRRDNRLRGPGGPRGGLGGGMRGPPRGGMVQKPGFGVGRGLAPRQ
Technique: RNA Bind-n-Seq
Molecule type: RNA
Sample: in vitro
Concentration: 1 µM
Setting: whole 134-nt RNA, ends assumed
Together with: 150 mM KCl
Baseline: input library
Direction: higher = stronger binding
Oligonucleotide	log2 enrichment
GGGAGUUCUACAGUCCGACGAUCAAGUCCUGUGCUACACAUCGUAUGUACCGAAUCGGGUUUUUGGGUUUGGGUUUGGGAAAGUAUUAUGUUACGCCGUUCGGAUCUGCACUUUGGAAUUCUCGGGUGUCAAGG	0.446
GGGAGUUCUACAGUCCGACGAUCUAACUUUAGAGGAGGAUCUGAUGGAUAUGGCAGUGGACGUGGAUUUGGGGAUGGCUAUAAUGGGUAUGGCGGAGGACCUGGAGGUGGCAAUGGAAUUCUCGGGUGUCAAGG	-0.373
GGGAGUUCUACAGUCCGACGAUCGUGCUACACAUCGUAUGUACCGAAUCGGGGAAAAAAAGGGGAAAAAAAGGGGUUUUUUUGGGGAAAGUAUUAUGUUACGCCGUUCGGAUCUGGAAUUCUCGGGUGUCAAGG	1.36
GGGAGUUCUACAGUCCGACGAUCCCUGUGCUACACAUCGUAUGUACCGAAUCGGGGAAAAAAAGGGGUGGGGAAAAAAAGGGGAAAGUAUUAUGUUACGCCGUUCGGAUCUGCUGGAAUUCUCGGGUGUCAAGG	0.42
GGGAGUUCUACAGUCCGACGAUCAGUCCUGUGCUACACAUCGUAUGUACCGAAUCGGGUUUUUUUGGGAAAAAGGGAGGGAAAGUAUUAUGUUACGCCGUUCGGAUCUGCACUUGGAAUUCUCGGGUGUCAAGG	0.413

Study 3
Target: Centromere-binding protein 1, full length, N-terminal tag (CBF1, Saccharomyces cerevisiae, UniProt P17106, residues 1-351)
Sequence of UniProt P17106 (whole entry, looked up): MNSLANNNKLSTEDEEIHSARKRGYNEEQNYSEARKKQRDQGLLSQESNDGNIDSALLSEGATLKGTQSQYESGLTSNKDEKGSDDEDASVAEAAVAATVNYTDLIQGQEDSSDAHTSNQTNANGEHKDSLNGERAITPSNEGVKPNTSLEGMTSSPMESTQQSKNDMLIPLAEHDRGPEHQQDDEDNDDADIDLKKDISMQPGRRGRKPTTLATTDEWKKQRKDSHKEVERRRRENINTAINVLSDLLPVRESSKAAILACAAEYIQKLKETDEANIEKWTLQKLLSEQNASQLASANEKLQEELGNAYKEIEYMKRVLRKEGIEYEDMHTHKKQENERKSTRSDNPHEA
Technique: protein-binding microarray
Molecule type: double-stranded DNA, one strand shown
Sample: in vitro
Concentration: 0.8 µM
Setting: whole 60-bp probe, no competitor
Direction: higher = stronger binding
Oligonucleotide	fluorescence intensity
TGTACGAAGCTATAGAACGTGGTTATAGTAGTTAGGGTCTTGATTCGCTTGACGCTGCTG	566 a.u.
GAAGGTATAACATATCTGGTGAGATGACCAATTTAGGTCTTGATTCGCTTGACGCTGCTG	584 a.u.
GAACGTGCCCTTCATCAGATTACATCACGTGAATAGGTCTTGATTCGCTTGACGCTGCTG	14700 a.u.
CTAAAGGACCCCCATATCGTGATAATCATTGATTTCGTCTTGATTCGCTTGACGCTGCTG	566 a.u.
GAATCGGTAATTCTACATGTGTCTGATCAAGGTTAGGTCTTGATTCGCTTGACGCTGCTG	603 a.u.

Mixed results
Substance	target	assay	test system	setting	scale	endpoint	value
PhoQ, residues 284 288 289 292 302 303 TGYLSA	PhoP, residues 12 14 15 18 19 DLLYY (Escherichia coli, UniProt P23836)	Sort-seq, measured: YFP reporter	E. coli	PhoQ-PhoP variant library, together with: 10 µM Mg2+	baseline: high Mg2+ state, higher = stronger signaling	fold induction	2.15

Some of these lines once more (study 2):
Oligonucleotide	log2 enrichment
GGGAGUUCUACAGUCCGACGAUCAGUCCUGUGCUACACAUCGUAUGUACCGAAUCGGGUUUUUUUGGGAAAAAGGGAGGGAAAGUAUUAUGUUACGCCGUUCGGAUCUGCACUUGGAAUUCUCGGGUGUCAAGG	0.413
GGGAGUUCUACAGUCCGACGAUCCCUGUGCUACACAUCGUAUGUACCGAAUCGGGGAAAAAAAGGGGUGGGGAAAAAAAGGGGAAAGUAUUAUGUUACGCCGUUCGGAUCUGCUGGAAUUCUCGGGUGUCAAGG	0.42
